Measured values pooled from the literature.
Protocols differ between the studies behind these lines. Several values in a cell are separate wells, animals, samples, runs or records. ± gives the spread as reported.
Sequence of UniProt P35372 (whole entry, looked up): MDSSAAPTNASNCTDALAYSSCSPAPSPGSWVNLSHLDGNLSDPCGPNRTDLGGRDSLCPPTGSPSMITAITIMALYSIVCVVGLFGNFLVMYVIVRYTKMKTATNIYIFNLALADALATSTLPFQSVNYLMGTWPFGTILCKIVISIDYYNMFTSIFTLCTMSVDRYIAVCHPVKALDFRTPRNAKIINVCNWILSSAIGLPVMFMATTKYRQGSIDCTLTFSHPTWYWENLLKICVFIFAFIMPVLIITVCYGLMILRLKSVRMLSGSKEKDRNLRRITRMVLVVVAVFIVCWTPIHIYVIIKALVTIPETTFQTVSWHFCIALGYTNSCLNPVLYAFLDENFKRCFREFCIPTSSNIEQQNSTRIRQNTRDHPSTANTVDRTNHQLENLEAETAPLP
Sequence of UniProt P41143 (whole entry, looked up): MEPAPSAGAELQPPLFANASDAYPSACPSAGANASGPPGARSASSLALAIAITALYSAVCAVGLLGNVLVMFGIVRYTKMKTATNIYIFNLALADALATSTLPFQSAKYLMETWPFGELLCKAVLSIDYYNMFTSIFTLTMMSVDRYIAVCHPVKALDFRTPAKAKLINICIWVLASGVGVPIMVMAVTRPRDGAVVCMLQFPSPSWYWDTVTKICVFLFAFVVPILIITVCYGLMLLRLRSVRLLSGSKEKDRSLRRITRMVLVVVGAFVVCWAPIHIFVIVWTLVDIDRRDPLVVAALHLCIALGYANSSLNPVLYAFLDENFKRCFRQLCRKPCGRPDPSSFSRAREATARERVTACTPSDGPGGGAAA

Compound	tested on	assay	system	setting	scale	quantity	value
CCCCCCCCCCCCCCCC(=O)N[C@@H](CCC(=O)NCCOCCOCCC(=O)NCCOCCOCCC(=O)NCCCC[C@H](NC(=O)[C@H](CC(=O)O)NC(=O)[C@H](CC(C)C)NC(=O)[C@H](Cc1ccc(O)cc1)NC(=O)[C@H](CCCCN)NC(=O)[C@H](CO)NC(=O)[C@H](Cc1ccc(O)cc1)NC(=O)[C@H](CC(=O)O)NC(=O)[C@H](CO)NC(=O)[C@@H](NC(=O)[C@H](Cc1ccccc1)NC(=O)[C@@H](NC(=O)CNC(=O)[C@H](CCC(N)=O)NC(=O)[C@@H](CO)NC(=O)[C@@H](N)Cc1c[nH]cn1)[C@@H](C)O)[C@@H](C)O)C(=O)N[C@@H](CCCNC(=N)N)C(=O)N[C@@H](CCCNC(=N)N)C(=O)N[C@@H](C)C(=O)N[C@@H](CCC(N)=O)C(=O)N[C@@H](CC(=O)O)C(=O)N[C@@H](Cc1ccccc1)C(=O)N[C@H](C(=O)N[C@@H](CCC(N)=O)C(=O)N[C@@H](Cc1c[nH]c2ccccc12)C(=O)N[C@@H](CC(C)C)C(=O)N[C@@H](CC(C)C)C(=O)N[C@@H](CC(N)=O)C(=O)N[C@H](C(=O)NCC(=O)NCC(=O)N1CCC[C@H]1C(=O)N[C@@H](CO)C(=O)N[C@@H](CO)C(=O)NCC(=O)N[C@@H](C)C(=O)N1CCC[C@H]1C(=O)N1CCC[C@H]1C(=O)N1CCC[C@H]1C(=O)N[C@@H](CO)C(N)=O)[C@@H](C)O)C(C)C)C(=O)O	–	–	rhesus monkey, plasma	subcutaneous, 20 µg/kg, single dose	–	half-life	2.83 h
Cc1oc2nc1C(=O)N[C@](C)(C(=O)NCCc1ccccc1)c1nc(c(C)o1)C(=O)N[C@](C)(C(=O)NCCc1ccccc1)c1nc(c(C)o1)C(=O)N[C@]2(C)C(=O)NCCc1ccccc1	SARS-CoV-2	–	Vero E6, NRC-03-nhCoV	–	baseline: CC50 over IC50	selectivity index	22.6
[N-]=[N+]=N[C@]1(CO)O[C@@H](n2ccc(N)nc2=O)C(F)(F)[C@@H]1O	Zaire ebolavirus	viral replication	NCI-H358	–	–	EC50	0.33 ± 0.03 µM
CC(C)C[C@H](NC(=O)[C@H](CO[C@@H]1O[C@H](CO)[C@@H](O)[C@H](O)[C@H]1O)NC(=O)[C@H](CCCCN)NC(=O)[C@H](CC(C)C)NC(=O)CNC(=O)[C@H](CCCCN)NC(=O)[C@H](CCC(=O)O)NC(=O)CNC(=O)[C@H](CC(C)C)NC(=O)[C@H](CC(N)=O)NC(=O)[C@@H]1CCCN1C(=O)[C@H](CC(C)C)NC(=O)[C@H](Cc1ccccc1)NC(=O)CNC(=O)[C@H](NC(=O)[C@@H](N)Cc1ccc(O)cc1)[C@H](C)O)C(N)=O	Mu-type opioid receptor (OPRM1, Homo sapiens, UniProt P35372)	radioligand displacement	CHO membranes	60 min, pH 7.5, 25 °C, together with: 0.25 nM [3H]DAMGO	–	Ki	0.0035 ± 0.00055 µM
CCOP(=O)(CCOCn1cnc(C#N)c1C#N)OCC	Zaire ebolavirus	viral replication, inhibitor	Vero	72 h	–	IC50	19 µg/mL
CC[C@H](C)[C@@H]1NC(=O)[C@@H](NC(=O)[C@H](CO)NC(=O)[C@@H](N)CCCNC(=N)N)CSSC[C@@H](C(=O)O)NC(=O)[C@H]([C@@H](C)O)NC(=O)CNC(=O)[C@@H]2CSSC[C@@H]3NC(=O)[C@H](CCC(N)=O)NC(=O)[C@H](Cc4ccccc4)NC(=O)[C@H](C)NC(=O)[C@H]([C@@H](C)O)NC(=O)[C@H](CSSC[C@H](NC(=O)[C@H](Cc4ccccc4)NC(=O)[C@H](CO)NC(=O)[C@H](CC(C)C)NC(=O)[C@H](CCCNC(=N)N)NC(=O)[C@H](Cc4ccc(O)cc4)NC(=O)[C@H](CCCCN)NC(=O)[C@H](CCSC)NC(=O)[C@H](CO)NC(=O)[C@H](Cc4cnc[nH]4)NC(=O)[C@H](CCCCN)NC3=O)C(=O)N[C@@H](CCCNC(=N)N)C(=O)N[C@@H](CCCCN)C(=O)N[C@@H]([C@@H](C)O)C(=O)N2)NC(=O)[C@H](CCCNC(=N)N)NC(=O)[C@H](CO)NC(=O)[C@H](CCCCN)NC(=O)[C@@H]2CCCN2C(=O)[C@H]([C@@H](C)CC)NC(=O)[C@H]([C@@H](C)O)NC(=O)[C@H](CC(=O)O)NC1=O	–	chemical stability	pig, simulated intestinal fluid	–	–	half-life	0.8 h
N#Cc1ncn(C2OC(CO)C(O)C2O)c1C#N (stereo not drawn)	Zaire ebolavirus	viral replication, inhibitor	Vero	72 h	–	IC50	18 µg/mL
CC(C)[C@H](NC(=O)[C@H](Cc1ccccc1)NC(=O)[C@H](Cc1ccccc1)NC(=O)[C@H](CC(=O)O)NC(=O)[C@H](CC(=O)O)NC(=O)CNC(=O)[C@H](CCCCN)NC(=O)[C@H](CCCCN)NC(=O)[C@@H](N)Cc1c[nH]cn1)C(=O)N[C@@H](Cc1ccc(O)cc1)C(=O)N[C@@H](C)C(=O)N[C@@H](CC(=O)O)C(=O)N[C@@H](Cc1ccc(O)cc1)C(=O)O	Zaire ebolavirus	–	wild type	–	–	IC50	16.7 µM
CC(C)C[C@H](NC(=O)[C@H](CO)NC(=O)[C@H](CCCCN)NC(=O)[C@H](CC(C)C)NC(=O)[C@H](C)NC(=O)[C@H](CCCCN)NC(=O)[C@H](CCC(=O)O)NC(=O)C(C)(C)NC(=O)[C@H](CC(C)C)NC(=O)[C@H](CC(N)=O)NC(=O)[C@@H]1CCCN1C(=O)[C@H](CC(C)C)NC(=O)[C@H](Cc1ccccc1)NC(=O)CNC(=O)[C@H](NC(=O)[C@@H](N)Cc1ccc(O)cc1)[C@H](C)O)C(N)=O	Delta-type opioid receptor (OPRD1, Homo sapiens, UniProt P41143)	ligand displacement, radioligand	–	pH 7.5, cell membranes	–	Ki	0.025 µM
CN1CCN(C(=O)N[C@@H](Cc2ccccc2)C(=O)N[C@H](/C=C/S(=O)(=O)c2ccccc2)CCc2ccccc2)CC1	Zaire ebolavirus	pseudovirus entry	HEK293T	EBOV	–	IC50	0.00087 ± 6e-05 µM
COc1cc2c3cc1Oc1c(OC)c(OC)cc4c1[C@@H](Cc1ccc(O)c(c1)Oc1ccc(cc1)C[C@@H]3N(C)CC2)N(C)CC4	Zaire ebolavirus	pseudovirus entry	HEK-293T	10 µM	–	inhibition	> 80%
CC[C@H](C)[C@H](NC(=O)[C@@H](NC(=O)[C@H](CCC(N)=O)NC(=O)[C@@H](N)CO)C(C)C)C(=O)N[C@@H](CO)C(=O)N[C@@H](CC(N)=O)C(=O)N1CCC[C@H]1C(=O)N[C@@H](Cc1ccc(O)cc1)C(=O)N[C@@H](Cc1ccc(O)cc1)C(=O)N1CCC[C@H]1C(=O)N[C@@H](Cc1ccccc1)C(=O)N[C@@H](Cc1ccc(O)cc1)C(=O)N[C@@H](Cc1ccc(O)cc1)C(=O)N[C@@H](CO)C(=O)O	Zaire ebolavirus	–	wild type	–	–	IC50	26.6 µM
CCOP(=O)(COCCn1cnc(C#N)c1C#N)OCC	Zaire ebolavirus	viral replication, inhibitor	Vero	72 h	–	IC50	37 µg/mL
Cc1cc(Cc2cc(C)cc(C(C)(C)C)c2O)c(O)c(Cc2cc(C)cc(C(C)(C)C)c2O)c1	Zaire ebolavirus	viral replication, inhibitor	HeLa	–	–	IC50	1.91 µM
CCN(CC)Cc1cc(Nc2ccnc3cc(I)ccc23)ccc1O	Zaire ebolavirus	viral replication	–	GFP reporter virus	–	IC50	0.58 µM and 0.64 µM

Repeated from above:
Compound	tested on	assay	system	setting	scale	quantity	value
COc1cc2c3cc1Oc1c(OC)c(OC)cc4c1[C@@H](Cc1ccc(O)c(c1)Oc1ccc(cc1)C[C@@H]3N(C)CC2)N(C)CC4	Zaire ebolavirus	pseudovirus entry	HEK-293T	10 µM	–	inhibition	> 80%
CCOP(=O)(CCOCn1cnc(C#N)c1C#N)OCC	Zaire ebolavirus	viral replication, inhibitor	Vero	72 h	–	IC50	19 µg/mL
